Published values pooled from the literature.
Each numbered part is a random draw from the data of one study; scales do not carry over between parts.
Sequence of UniProt P22455 (whole entry, looked up): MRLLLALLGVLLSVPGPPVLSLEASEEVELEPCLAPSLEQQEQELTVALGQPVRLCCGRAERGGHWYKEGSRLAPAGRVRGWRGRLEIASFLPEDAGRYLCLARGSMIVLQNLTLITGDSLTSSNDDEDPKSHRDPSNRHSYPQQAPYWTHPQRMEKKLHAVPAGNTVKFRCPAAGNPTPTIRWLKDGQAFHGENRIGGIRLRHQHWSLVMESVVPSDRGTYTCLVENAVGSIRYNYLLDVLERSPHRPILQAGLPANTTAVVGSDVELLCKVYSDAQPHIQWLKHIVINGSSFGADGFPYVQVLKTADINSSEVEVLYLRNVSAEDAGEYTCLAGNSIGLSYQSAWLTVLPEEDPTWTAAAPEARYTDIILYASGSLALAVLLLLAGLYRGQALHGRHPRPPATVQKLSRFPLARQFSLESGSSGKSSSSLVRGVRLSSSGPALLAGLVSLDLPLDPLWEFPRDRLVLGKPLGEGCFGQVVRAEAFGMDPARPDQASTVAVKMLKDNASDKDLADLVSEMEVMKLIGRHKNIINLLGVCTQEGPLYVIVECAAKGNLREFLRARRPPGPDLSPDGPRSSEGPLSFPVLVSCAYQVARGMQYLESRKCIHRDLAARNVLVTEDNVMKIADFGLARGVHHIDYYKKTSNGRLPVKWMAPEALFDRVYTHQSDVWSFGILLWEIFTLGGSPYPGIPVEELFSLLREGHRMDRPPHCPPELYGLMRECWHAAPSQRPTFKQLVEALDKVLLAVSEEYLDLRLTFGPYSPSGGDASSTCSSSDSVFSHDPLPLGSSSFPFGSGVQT

Series 1
Target: DNA polymerase theta, helicase domain (POLQ, Homo sapiens, UniProt O75417)
Sequence of UniProt O75417 (whole entry, looked up): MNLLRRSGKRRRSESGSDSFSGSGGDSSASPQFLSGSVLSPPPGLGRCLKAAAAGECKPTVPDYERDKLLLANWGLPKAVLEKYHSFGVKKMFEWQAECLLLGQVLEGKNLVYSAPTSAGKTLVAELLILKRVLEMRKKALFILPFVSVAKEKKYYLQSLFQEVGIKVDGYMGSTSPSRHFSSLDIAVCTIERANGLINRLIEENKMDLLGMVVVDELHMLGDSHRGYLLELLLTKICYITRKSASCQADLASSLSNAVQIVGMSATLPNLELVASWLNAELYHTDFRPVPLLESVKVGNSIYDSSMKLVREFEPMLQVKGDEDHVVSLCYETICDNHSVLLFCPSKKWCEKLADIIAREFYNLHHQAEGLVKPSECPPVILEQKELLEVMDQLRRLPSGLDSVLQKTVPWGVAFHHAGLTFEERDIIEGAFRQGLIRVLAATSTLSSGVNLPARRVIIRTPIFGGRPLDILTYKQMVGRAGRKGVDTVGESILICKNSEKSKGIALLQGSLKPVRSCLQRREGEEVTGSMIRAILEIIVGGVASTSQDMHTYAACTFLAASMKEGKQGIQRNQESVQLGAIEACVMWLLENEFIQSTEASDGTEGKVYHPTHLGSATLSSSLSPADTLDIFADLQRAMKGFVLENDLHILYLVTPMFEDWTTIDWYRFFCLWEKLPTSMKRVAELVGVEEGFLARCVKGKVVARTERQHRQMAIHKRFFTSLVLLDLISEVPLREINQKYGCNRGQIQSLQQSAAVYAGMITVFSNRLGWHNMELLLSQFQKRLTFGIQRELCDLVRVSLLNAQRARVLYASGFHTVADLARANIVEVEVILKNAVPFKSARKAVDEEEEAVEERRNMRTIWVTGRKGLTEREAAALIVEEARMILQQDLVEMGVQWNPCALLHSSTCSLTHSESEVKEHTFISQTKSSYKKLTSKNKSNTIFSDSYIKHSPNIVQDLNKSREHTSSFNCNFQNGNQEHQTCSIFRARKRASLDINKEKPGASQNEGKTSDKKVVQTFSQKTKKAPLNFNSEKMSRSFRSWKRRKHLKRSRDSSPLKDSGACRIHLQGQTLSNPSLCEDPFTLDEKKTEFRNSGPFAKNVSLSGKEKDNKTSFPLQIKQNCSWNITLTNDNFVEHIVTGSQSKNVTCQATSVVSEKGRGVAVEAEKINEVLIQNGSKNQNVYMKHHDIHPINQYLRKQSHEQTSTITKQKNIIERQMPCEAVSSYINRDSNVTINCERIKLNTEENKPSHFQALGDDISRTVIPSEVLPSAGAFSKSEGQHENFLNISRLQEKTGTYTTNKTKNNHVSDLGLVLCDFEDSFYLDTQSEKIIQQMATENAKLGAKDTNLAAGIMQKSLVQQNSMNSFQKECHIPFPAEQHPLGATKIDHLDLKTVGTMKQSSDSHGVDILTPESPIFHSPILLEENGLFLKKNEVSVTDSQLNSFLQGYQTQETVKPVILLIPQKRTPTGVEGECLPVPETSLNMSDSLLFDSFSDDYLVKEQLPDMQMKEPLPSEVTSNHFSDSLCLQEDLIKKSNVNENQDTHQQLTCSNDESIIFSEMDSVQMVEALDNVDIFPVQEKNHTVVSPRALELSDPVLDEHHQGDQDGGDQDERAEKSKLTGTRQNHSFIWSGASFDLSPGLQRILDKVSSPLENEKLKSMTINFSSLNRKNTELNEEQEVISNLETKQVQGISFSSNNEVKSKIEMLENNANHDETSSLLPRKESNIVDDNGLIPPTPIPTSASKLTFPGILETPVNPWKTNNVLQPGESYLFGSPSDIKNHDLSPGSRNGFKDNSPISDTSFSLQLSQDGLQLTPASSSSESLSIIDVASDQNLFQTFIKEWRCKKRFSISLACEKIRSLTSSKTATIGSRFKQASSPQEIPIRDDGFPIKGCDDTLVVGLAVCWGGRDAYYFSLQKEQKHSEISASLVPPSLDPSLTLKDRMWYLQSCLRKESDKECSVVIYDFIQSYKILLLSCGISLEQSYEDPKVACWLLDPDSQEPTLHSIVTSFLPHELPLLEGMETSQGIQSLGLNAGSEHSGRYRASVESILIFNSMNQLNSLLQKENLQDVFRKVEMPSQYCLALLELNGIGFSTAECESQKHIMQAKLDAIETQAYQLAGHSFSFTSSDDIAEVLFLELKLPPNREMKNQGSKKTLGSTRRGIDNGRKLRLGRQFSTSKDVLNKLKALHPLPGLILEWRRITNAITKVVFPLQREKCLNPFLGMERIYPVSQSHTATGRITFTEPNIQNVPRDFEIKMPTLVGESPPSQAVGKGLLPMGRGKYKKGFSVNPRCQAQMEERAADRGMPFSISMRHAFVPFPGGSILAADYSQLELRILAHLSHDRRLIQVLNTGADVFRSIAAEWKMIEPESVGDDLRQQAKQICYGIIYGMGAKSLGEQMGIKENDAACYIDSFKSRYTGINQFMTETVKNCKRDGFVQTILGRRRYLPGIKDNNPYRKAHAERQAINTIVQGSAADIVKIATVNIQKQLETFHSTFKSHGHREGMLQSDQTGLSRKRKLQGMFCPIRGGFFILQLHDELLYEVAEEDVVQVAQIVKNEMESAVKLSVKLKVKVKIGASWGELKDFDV
Read-out: ATPase activity
Tested at: concentration not given
Setting: with minus without ssDNA
SMILES	activity difference
Cc1ccc(C2C=C(c3ccccc3)N=C3N=C(NS(C)(=O)=O)NN32)cc1 (stereo not shown)	0.782%
CCCCCCCCCCC/C=C\C(C)(C)/C=C\CCCC(=O)O	3.63%
Cc1ccc(-c2n[nH]c3c2C(c2ccccc2Cl)N(c2ccc(C(=O)O)cc2)C3=O)cc1 (stereo not shown)	8.67%
COc1ccc2c(c1)c(CC(=O)O)c(C)n2Cc1ccc(Cl)cc1	5.2%
CC(=O)Oc1cccc2c1C(=O)c1c(OC(C)=O)cc(C(=O)O)cc1C2=O	1.57%
O=C(O)C1=CC(=C(c2ccc(O)c(C(=O)O)c2)c2ccc(O)c(C(=O)O)c2)C=CC1=O	5.17%
CCOc1ccccc1NC(=O)CSc1ncc(S(=O)(=O)c2ccc(C(C)(C)C)cc2)c(=O)[nH]1	1.63%
CCCCCCCC/C=C\CCCCCCCC(=O)O	1.57%

Series 2
SMILES: C[S+]([O-])c1ccc(-c2nc(-c3ccncc3)c(-c3ccc(F)cc3)[nH]2)cc1 (stereo not shown)
Read-out: enzyme activity
Mode: inhibitor
Tested at: 0.5 µM
Reference: control
target	remaining activity [%]
G protein-coupled receptor kinase 6 (GRK6, Homo sapiens, UniProt P43250)	102
Protein kinase C epsilon type (PRKCE, Homo sapiens, UniProt Q02156)	115
Glycogen synthase kinase-3 alpha (GSK3A, Homo sapiens, UniProt P49840)	94.1
Aurora kinase C (AURKC, Homo sapiens, UniProt Q9UQB9)	98.5
Protein kinase C gamma type (PRKCG, Homo sapiens, UniProt P05129)	90
Ephrin type-A receptor 7 (EPHA7, Homo sapiens, UniProt Q15375)	83.1
Ephrin type-B receptor 2 (EPHB2, Homo sapiens, UniProt P29323)	108
Serine/threonine-protein kinase pim-2 (PIM2, Homo sapiens, UniProt Q9P1W9)	104
Beta-adrenergic receptor kinase 1 (GRK2, Homo sapiens, UniProt P25098)	101
SRSF protein kinase 3 (SRPK3, Homo sapiens, UniProt Q9UPE1)	99.4
Tyrosine-protein kinase CSK (CSK, Homo sapiens, UniProt P41240)	87.7
NUAK family SNF1-like kinase 1 (NUAK1, Homo sapiens, UniProt O60285)	94.4
Fibroblast growth factor receptor 4 (FGFR4, Homo sapiens, UniProt P22455)	73.8
Serine/threonine-protein kinase Sgk1 (SGK1, Homo sapiens, UniProt O00141)	97.3
Ribosomal protein S6 kinase beta-1 (RPS6KB1, Homo sapiens, UniProt P23443)	97.4
Serine/threonine-protein kinase PAK 2 (PAK2, Homo sapiens, UniProt Q13177)	78
Macrophage colony-stimulating factor 1 receptor (CSF1R, Homo sapiens, UniProt P07333)	95.5

Series 3
Target: Beta-1 adrenergic receptor (ADRB1, Homo sapiens, UniProt P08588)
Sequence of UniProt P08588 (whole entry, looked up): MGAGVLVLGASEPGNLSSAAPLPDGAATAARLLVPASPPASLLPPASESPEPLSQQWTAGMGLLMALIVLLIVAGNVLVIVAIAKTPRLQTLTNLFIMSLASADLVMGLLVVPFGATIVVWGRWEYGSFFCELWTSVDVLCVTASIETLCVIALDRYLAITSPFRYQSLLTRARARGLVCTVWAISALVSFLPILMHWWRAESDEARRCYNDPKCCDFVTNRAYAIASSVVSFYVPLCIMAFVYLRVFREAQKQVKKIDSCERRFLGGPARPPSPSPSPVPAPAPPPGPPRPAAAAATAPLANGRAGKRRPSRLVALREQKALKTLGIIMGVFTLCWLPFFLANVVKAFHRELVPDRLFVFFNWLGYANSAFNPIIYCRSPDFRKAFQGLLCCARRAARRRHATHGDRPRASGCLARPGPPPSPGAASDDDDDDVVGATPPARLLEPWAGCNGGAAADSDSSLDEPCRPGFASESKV
Mode: antagonist
Structure (SMILES)	IC50
COc1ccc(CN(C)Cc2nc(C)no2)c(OCC(O)CN2CCCC2)c1 (stereo not shown)	≥ 100 µM
Cc1ccc(F)c(Cn2cnc3c(cnn3C(C)(C)C)c2=O)c1Cl	≥ 100 µM
COc1ccccc1N1CCC(N2C(=O)C3CCCN3C2=O)CC1 (stereo not shown)	≥ 100 µM
Cc1cc2c(-c3ccccc3C)nc(-c3c(C)noc3C)cc2[nH]1	31.6 µM
c1ccc(OCC2CN(Cc3ccc4[nH]ccc4c3)CC23CN(c2ccccc2)C3)cc1 (stereo not shown)	≥ 100 µM
COc1ccc(OC)c(-c2ncc3c(n2)OCCN(c2cccc(C(F)(F)F)c2)C3=O)c1	≥ 100 µM
Cc1ccccc1-c1n[nH]c2ncc(-c3cccc(O)c3)nc12	≥ 100 µM
CCN1CCN(CC(O)COc2cccc(CNCCc3cccc(C)n3)c2)CC1 (stereo not shown)	≥ 100 µM
COc1ccccc1C(=O)Nc1ccc2ccccc2n1	≥ 100 µM
CCOc1ccccc1N1CCN([S+](=O)([O-])c2cc(Cl)ccc2Cl)CC1	≥ 100 µM
Cc1cc(C)n(-c2ccc(=O)n(CC3CN(c4nc5c(cc4C#N)CCC5)C3)n2)n1	≥ 100 µM

Series 4
Target: 5-hydroxytryptamine receptor 1B (HTR1B, Homo sapiens, UniProt P28222)
Sequence of UniProt P28222 (whole entry, looked up): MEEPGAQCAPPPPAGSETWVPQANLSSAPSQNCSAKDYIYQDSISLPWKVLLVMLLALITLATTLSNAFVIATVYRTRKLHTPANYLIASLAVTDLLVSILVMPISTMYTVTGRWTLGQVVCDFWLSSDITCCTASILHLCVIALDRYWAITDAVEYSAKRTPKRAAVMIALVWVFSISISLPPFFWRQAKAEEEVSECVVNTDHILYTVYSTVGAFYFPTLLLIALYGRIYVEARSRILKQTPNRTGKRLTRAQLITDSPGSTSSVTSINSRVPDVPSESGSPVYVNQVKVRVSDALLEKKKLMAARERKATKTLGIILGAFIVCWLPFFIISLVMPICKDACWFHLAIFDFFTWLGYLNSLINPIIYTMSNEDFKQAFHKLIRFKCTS
Read-out: binding
Method: radioligand binding
Tested at: 10 µM
SMILES	inhibition
COc1nc2ccc([C@@](O)(c3ccccc3)C3CCN(C(C)=O)CC3)cc2c(Cl)c1Cc1ccc(-n2cccn2)cc1	8.87%
Nc1nc(NCc2ccccc2)nc(-c2ccccc2CO)n1	7.41%
COCc1nc2cnc3cc(-c4c(C)noc4C)c(OC[C@H]4CCNC4)cc3c2n1[C@H](C)c1ccccc1	8.66%
CC(=O)Nc1nc(CN2CCC[C@H](Cc3cc(C)nc(C)c3)C2)cs1	4.01%
CC1=C(C#N)C(c2ccc3[nH]nc(C)c3c2)C(C#N)=C(C)N1	0.48%
CN1C(=O)[C@@H](N2CCc3c(nn(Cc4ccccc4)c3Br)C2=O)COc2ccccc21	-3.35%
Cc1c(N2CCCC2)nc2ccc(Br)cc2c1C(=O)NC[C@H](CCC(=O)O)c1ccccc1Cl	-2.2%
CN(C)c1ncnc(-c2ccc3nc(Nc4cc(CN5CCN(C(=O)CC(F)(F)F)CC5)ccn4)[nH]c3c2)c1Cl	6.15%
O=C(NNS(=O)(=O)c1ccccc1)c1cc(-c2ccnnc2)ccc1F	11%
O[C@]1(C(F)(F)F)CCCC[C@H]1Nc1ccc(F)cc1	-3.12%
CN1C(=O)[C@@H](N2CCc3cn(Cc4ccccc4)nc3C2=O)COc2ccccc21	0.99%
CCC(=NO)C(C)=Cc1ccc(F)c(C)c1	-1.04%
CNC(=O)Nc1ccc2c(c1)[C@]1(CC2)OC(=O)N(CC(=O)N(Cc2ccc(F)cc2)[C@@H](C)C(F)(F)F)C1=O	11.2%
Cc1ccccc1Oc1cc(-n2c(=O)cc(C(F)(F)F)[nH]c2=O)c2ccccc2c1Cl	4.02%
O=C(Nc1cccnn1)N1CC(CC=Cc2cncc(Oc3ccc(C(F)(F)F)cn3)n2)C1	4.8%
CC1CCN(c2ccnc(NCc3cn(C)cn3)n2)CC1	24.4%
c1ccc(C2CCN(c3cnc4c(N5CCOCC5)nccn34)CC2)cc1	8.68%
CCCOc1ccc([C@H]2[C@H](C(=O)O)[C@@H](c3ccc4c(c3)OCO4)CN2CC(=O)Nc2c(CC)cccc2CC)cc1	4.31%
CS(=O)(=O)N1CCCC(NC(=O)[C@H](CCC2CCCCC2)NC(=O)c2ccc(CNC(=O)c3cnc4ccccn34)cc2)C1 (stereo partly shown)	10.9%
NS(=O)(=O)c1cc(NC(=O)Cc2ccccc2)ccc1Oc1cccc(Cl)c1	-2.93%
Cc1ncc(-c2cc(Cl)ccc2F)cc1-n1c(=O)n(CC(N)=O)c2ccccc21	-7.07%
CCOc1ccc(S(=O)(=O)Nc2ccc(Cl)cc2C#Cc2cnc(C(=O)O)cc2OC)c2ncccc12	-21.8%
